# Measurements of several laboratories.
# A part holds a random share of what one study measured. Several values in a cell are separate wells, animals, samples, runs or records.
# Sequence of UniProt Q14289 (whole entry, looked up): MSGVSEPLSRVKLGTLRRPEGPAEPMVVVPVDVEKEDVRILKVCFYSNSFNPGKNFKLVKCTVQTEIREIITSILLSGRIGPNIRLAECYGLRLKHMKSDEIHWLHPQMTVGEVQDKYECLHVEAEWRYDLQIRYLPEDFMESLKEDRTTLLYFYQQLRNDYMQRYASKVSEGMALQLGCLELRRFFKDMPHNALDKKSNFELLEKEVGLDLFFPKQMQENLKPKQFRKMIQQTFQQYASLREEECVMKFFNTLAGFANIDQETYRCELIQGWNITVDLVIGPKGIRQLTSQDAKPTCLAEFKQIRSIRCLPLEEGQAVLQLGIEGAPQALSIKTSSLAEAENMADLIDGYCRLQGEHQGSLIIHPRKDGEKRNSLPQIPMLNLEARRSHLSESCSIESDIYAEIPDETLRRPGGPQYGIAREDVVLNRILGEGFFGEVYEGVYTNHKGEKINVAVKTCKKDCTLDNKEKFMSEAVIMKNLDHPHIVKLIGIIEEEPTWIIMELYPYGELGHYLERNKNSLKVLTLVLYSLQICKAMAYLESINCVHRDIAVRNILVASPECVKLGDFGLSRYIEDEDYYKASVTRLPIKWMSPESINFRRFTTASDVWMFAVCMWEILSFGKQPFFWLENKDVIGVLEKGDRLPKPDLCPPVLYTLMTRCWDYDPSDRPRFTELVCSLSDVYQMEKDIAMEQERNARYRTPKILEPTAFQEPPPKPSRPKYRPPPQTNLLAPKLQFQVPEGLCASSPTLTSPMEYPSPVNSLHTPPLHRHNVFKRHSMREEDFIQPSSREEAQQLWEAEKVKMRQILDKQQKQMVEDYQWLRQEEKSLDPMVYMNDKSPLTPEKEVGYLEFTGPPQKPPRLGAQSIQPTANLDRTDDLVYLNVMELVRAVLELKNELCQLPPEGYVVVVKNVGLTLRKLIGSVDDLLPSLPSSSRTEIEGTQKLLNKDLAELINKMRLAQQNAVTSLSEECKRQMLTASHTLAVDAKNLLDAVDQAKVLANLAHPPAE
# Sequence of UniProt P37023 (whole entry, looked up): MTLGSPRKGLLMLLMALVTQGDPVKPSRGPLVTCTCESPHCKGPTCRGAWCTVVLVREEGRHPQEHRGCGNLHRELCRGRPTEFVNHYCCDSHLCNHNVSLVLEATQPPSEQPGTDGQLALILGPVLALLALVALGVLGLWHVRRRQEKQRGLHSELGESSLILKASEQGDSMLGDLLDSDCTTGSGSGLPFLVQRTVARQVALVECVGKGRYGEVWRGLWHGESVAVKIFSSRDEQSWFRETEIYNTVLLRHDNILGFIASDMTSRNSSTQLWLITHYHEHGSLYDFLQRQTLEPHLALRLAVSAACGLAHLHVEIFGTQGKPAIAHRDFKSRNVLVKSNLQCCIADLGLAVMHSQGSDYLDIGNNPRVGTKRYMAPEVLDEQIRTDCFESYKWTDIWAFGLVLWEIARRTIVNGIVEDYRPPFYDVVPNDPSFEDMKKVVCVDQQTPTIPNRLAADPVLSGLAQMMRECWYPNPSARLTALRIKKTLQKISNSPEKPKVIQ
# Sequence of UniProt Q96SB4 (whole entry, looked up): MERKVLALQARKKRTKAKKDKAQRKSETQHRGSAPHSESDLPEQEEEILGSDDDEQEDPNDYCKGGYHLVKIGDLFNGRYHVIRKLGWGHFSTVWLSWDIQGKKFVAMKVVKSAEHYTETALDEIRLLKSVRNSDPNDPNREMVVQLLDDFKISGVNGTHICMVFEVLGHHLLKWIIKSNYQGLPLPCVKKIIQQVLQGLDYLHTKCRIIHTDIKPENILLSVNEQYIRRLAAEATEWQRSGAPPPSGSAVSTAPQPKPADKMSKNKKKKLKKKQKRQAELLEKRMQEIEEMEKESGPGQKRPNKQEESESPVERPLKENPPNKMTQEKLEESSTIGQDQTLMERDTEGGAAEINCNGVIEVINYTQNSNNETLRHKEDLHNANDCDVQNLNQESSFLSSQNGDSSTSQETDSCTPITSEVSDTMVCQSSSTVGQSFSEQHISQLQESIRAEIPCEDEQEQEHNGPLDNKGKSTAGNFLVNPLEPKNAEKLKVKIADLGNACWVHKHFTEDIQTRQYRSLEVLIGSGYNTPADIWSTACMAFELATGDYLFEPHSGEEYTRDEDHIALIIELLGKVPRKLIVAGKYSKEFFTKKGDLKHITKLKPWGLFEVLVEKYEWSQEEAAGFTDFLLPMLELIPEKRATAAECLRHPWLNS
# Sequence of UniProt P08069 (whole entry, looked up): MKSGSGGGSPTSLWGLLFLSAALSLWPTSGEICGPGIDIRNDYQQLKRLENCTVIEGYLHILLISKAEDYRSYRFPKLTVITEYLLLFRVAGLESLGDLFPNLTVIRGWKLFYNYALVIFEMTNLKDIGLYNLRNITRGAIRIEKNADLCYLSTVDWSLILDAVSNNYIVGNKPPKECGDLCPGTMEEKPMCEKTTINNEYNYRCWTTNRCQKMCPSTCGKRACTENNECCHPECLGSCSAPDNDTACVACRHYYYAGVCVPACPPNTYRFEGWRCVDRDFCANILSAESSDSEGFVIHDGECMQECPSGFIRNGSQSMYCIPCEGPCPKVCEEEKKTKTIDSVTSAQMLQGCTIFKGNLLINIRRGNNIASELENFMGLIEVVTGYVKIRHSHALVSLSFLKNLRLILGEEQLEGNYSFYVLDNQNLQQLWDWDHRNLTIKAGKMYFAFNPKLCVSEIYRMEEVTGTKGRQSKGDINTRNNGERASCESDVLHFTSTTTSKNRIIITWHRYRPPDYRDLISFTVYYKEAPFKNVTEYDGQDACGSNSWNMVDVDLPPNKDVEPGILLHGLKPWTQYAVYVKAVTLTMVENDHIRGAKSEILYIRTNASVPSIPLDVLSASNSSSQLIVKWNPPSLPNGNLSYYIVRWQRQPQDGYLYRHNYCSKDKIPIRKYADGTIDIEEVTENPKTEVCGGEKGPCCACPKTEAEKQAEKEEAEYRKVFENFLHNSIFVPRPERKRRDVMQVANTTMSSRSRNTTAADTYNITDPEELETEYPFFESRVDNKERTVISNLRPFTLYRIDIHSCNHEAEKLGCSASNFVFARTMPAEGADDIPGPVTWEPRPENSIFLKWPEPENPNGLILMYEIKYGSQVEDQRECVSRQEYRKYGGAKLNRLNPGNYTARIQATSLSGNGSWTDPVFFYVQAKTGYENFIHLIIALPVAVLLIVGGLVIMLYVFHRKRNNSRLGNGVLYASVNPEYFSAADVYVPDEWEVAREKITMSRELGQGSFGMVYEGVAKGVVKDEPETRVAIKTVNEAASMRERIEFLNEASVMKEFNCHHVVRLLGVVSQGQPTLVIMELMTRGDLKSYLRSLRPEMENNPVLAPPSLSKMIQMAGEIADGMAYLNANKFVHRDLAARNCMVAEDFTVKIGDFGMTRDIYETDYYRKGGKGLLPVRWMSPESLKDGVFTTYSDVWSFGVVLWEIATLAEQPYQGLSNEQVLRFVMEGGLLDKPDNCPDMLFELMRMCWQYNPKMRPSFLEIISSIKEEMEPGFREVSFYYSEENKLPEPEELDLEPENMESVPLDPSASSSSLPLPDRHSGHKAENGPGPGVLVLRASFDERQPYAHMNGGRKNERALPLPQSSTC
# Sequence of UniProt Q06418 (whole entry, looked up): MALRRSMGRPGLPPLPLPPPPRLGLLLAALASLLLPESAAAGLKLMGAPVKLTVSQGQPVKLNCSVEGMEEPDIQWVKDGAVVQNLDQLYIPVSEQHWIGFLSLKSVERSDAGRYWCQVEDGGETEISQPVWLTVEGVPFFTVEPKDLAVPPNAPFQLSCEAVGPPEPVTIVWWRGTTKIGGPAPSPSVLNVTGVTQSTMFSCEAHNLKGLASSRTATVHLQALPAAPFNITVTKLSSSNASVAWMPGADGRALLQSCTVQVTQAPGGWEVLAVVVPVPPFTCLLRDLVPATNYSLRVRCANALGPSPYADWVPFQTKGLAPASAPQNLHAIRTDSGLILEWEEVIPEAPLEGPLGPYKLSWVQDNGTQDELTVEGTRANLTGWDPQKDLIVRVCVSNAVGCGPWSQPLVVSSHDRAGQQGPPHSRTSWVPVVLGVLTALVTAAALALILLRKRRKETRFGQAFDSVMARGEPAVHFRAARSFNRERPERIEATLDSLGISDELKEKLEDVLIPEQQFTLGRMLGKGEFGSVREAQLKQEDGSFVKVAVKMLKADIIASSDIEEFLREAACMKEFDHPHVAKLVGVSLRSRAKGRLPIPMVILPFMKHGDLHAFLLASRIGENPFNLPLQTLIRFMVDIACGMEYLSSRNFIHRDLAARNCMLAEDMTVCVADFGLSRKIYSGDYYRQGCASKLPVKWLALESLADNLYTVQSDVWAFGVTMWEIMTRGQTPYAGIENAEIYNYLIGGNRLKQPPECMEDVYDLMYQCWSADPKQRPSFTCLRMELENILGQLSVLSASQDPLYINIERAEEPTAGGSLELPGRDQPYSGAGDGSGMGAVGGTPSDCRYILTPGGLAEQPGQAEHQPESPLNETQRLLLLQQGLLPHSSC
# Sequence of UniProt Q00535 (whole entry, looked up): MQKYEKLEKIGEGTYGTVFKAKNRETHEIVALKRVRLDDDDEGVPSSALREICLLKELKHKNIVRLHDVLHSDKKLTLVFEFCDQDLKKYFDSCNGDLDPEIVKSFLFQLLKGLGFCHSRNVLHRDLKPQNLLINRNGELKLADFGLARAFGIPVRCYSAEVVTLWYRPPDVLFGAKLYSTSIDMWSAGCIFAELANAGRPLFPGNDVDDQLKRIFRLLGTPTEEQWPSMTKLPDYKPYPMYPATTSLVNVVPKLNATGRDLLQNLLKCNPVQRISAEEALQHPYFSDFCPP

# Set 1 — observed: enzyme activity; mode: inhibitor; tested at: 0.5 µM; relative to: control
# Compound: Nc1[nH]nc2nnc(-c3c(-c4ccccc4)nn4ccccc34)cc12
target,remaining activity [%]
"FES (Homo sapiens, UniProt P07332)",97.8
"CLK1 (Homo sapiens, UniProt P49759)",108
"JAK2 (Homo sapiens, UniProt O60674)",97.1
"MARK1 (Homo sapiens, UniProt Q9P0L2)",98
"PAK1 (Homo sapiens, UniProt Q13153)",91.9
"SRPK1 (Homo sapiens, UniProt Q96SB4)",83.7
"RPS6KB2 (Homo sapiens, UniProt Q9UBS0)",104
"CAMKK1 (Homo sapiens, UniProt Q8N5S9)",125
"ACVRL1 (Homo sapiens, UniProt P37023)",106
"IGF1R (Homo sapiens, UniProt P08069)",102
"EPHB3 (Homo sapiens, UniProt P54753)",96.8
"Cyclin-dependent kinase 5, with p35 (CDK5, Homo sapiens, UniProt Q00535)",105
"TYRO3 (Homo sapiens, UniProt Q06418)",97.6

# Set 2 — method: RNA Bind-n-Seq; form: RNA; sample: in vitro; tested at: 20 nM; setting: 6-mer, flanks averaged, single round; added: 150 mM KCl; relative to: input library; reading: higher = stronger binding
# Target: TAR DNA-binding protein 43, full length, His tag (TARDBP, Homo sapiens, UniProt Q13148, residues 1-414)
Strand,6-mer enrichment (R)
AGGCUA,0.786
UUGGCU,0.721
GUACCU,0.643
CAGGGA,2.25
ACAGUU,0.612
GCUUCC,0.625
CUGAUA,0.608
AACCCU,0.614

# Further values, each from its own experiment
SMILES,tested on,assay,test system,conditions,how to read,quantity,result
CNC(=O)c1ccc(Nc2ncc(C(F)(F)F)c(NCc3nccnc3N(C)S(C)(=O)=O)n2)cc1,"PTK2B (Homo sapiens, UniProt Q14289)","target engagement, NanoBRET",live cells,,,EC50,0.703 µM and 0.509 µM and 0.347 µM
CCOC(=O)[C@@H]1CSCC(=O)N[C@H](CC)C(=O)N(C)[C@@H](C)C(=O)N[C@H](CC(C)C)C(=O)N2CCC[C@@H]2C(=O)N(CC(C)C)CC(=O)N[C@@H](CC(C)C)C(=O)N(C)[C@H](C)C(=O)N[C@@H](CC(C)C)C(=O)N1C,,,hydrocarbon/water,,,logD,1.02
CN1C(=O)[C@@H](N2CCc3c(nn(Cc4ccccc4)c3Br)C2=O)COc2ccccc21,normal-adjacent organoid sample D,CellTiter-Glo,,"0.1 µM, replicate mean",relative to: DMSO,viability,110%
Nc1c(C(=O)NCc2ccc(C(=O)NCCCC3CCCCC3)cc2)cnn1-c1ccccc1,normal-adjacent organoid sample D,CellTiter-Glo,,"0.1 µM, replicate mean",relative to: DMSO,viability,153%
CCOC(=O)c1cc2cc(-c3cc(C(=O)NCc4ccc(C(=O)O)cc4)nn3C)ccc2[nH]1,normal-adjacent organoid sample E,CellTiter-Glo,,"0.1 µM, replicate mean",relative to: DMSO,viability,104%

# For quick reference, copied from above (further values, each from its own experiment):
SMILES,tested on,assay,test system,conditions,how to read,quantity,result
CN1C(=O)[C@@H](N2CCc3c(nn(Cc4ccccc4)c3Br)C2=O)COc2ccccc21,normal-adjacent organoid sample D,CellTiter-Glo,,"0.1 µM, replicate mean",relative to: DMSO,viability,110%
CCOC(=O)c1cc2cc(-c3cc(C(=O)NCc4ccc(C(=O)O)cc4)nn3C)ccc2[nH]1,normal-adjacent organoid sample E,CellTiter-Glo,,"0.1 µM, replicate mean",relative to: DMSO,viability,104%
Nc1c(C(=O)NCc2ccc(C(=O)NCCCC3CCCCC3)cc2)cnn1-c1ccccc1,normal-adjacent organoid sample D,CellTiter-Glo,,"0.1 µM, replicate mean",relative to: DMSO,viability,153%
CNC(=O)c1ccc(Nc2ncc(C(F)(F)F)c(NCc3nccnc3N(C)S(C)(=O)=O)n2)cc1,"PTK2B (Homo sapiens, UniProt Q14289)","target engagement, NanoBRET",live cells,,,EC50,0.703 µM and 0.509 µM and 0.347 µM
